Measurements from different studies.
Parts stem from different laboratories: compare values within a part only. ± marks the error that the study gave. Values after ≈ are worked out from the molar mass of the structure shown.
Chain of UniProt Q8IWQ3 (whole entry, looked up): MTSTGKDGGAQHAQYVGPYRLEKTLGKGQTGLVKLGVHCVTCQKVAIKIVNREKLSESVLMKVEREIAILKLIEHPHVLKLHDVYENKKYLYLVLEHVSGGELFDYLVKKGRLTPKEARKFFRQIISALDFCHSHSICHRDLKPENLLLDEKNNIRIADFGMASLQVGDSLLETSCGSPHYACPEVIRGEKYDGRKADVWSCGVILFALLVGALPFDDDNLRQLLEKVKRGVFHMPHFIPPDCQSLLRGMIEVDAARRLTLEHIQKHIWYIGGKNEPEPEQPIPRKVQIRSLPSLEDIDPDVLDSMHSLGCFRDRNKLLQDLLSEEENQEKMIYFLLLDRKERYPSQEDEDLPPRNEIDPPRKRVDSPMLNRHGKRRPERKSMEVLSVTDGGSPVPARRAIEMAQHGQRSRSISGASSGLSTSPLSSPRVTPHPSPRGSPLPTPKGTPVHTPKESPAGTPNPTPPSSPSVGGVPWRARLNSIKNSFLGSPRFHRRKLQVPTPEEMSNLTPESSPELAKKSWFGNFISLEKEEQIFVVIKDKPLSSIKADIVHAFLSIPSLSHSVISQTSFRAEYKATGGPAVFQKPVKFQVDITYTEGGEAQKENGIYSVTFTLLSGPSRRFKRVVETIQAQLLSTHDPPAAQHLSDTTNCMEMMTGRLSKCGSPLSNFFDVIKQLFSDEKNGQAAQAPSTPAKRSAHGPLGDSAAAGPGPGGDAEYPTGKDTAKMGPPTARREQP

Series 1 — target: human lysosomal acid alpha-glucosidase; mode: inhibitor; together with: pNPG substrate
SMILES | IC50 [µg/mL]
COc1cc(/C=N/NC(=S)N/N=C\c2ccc(Cl)c(Cl)c2)ccc1Oc1ccnc2cc(Cl)ccc12 | 8.5 ± 0.16 (≈ 15.2 µM)
COc1cc(/C=N/NC(=S)N/N=C/c2ccc(C=O)cc2)ccc1Oc1ccnc2cc(Cl)ccc12 | 10.6 ± 0.4 (≈ 20.4 µM)
COc1cc(/C=N/NC(=S)N/N=C/c2ccccc2)ccc1Oc1ccnc2cc(Cl)ccc12 | 12.4 ± 0.69 (≈ 25.4 µM)
COc1cc(/C=N/NC(=S)N/N=C/c2ccc(Br)s2)ccc1Oc1ccnc2cc(Cl)ccc12 | 13.5 ± 0.36 (≈ 23.4 µM)

Series 2 — organism: Saccharomyces cerevisiae; technique: broth microdilution; strain: ATCC 9763
SMILES | MFC/MIC ratio
Nc1nn2c(-c3ccc(Cl)cc3Cl)cc(-c3ccc(OCc4ccccc4)cc3)nc2c1N=Nc1ccc(F)cc1 | 4
COc1ccc(N=Nc2c(N)nn3c(-c4ccco4)cc(-c4ccc(OCc5ccccc5)cc4)nc23)cc1 | 2
COc1ccc(N=Nc2c(N)nn3c(-c4ccc(Cl)cc4Cl)cc(-c4ccc(OCc5ccccc5)cc4)nc23)cc1 | 4
Nc1nn2c(-c3ccco3)cc(-c3ccc(OCc4ccccc4)cc3)nc2c1N=Nc1ccc(F)cc1 | 1.9
Cc1ccc(N=Nc2c(N)nn3c(-c4ccc(C)cc4)cc(-c4ccc(OCc5ccccc5)cc4)nc23)cc1 | 4

Other studies, line by line
SMILES | tested on | test | system | setting | endpoint | result
O=C(Nc1cc(-c2ccc(Cl)cc2)[nH]n1)C1CCCCC1 | BRSK2 (Homo sapiens, UniProt Q8IWQ3) | enzyme activity, Dundee kinase panel |  | 10 µM | remaining activity | 82%
CCOc1c([C@H](C)n2nc(C)c3c(N)ncnc32)cc(Cl)c(F)c1[C@@H]1CNC(=O)C1 |  |  | patients with DLBCL, plasma | oral, 30 mg, day 15, monotherapy | half-life geometric mean | 10.3 ± 1.96 h

For quick reference, copied from above (series 1):
SMILES | IC50 [µg/mL]
COc1cc(/C=N/NC(=S)N/N=C/c2ccccc2)ccc1Oc1ccnc2cc(Cl)ccc12 | 12.4 ± 0.69 (≈ 25.4 µM)
COc1cc(/C=N/NC(=S)N/N=C/c2ccc(Br)s2)ccc1Oc1ccnc2cc(Cl)ccc12 | 13.5 ± 0.36 (≈ 23.4 µM)
